Measurements from different studies.
Lines come from different studies, so protocols differ. Numbers after ± are the reported error.

| Substance | assay | test system | conditions | how to read | quantity | result |
| --- | --- | --- | --- | --- | --- | --- |
| CN[C@@](C)(C[18F])C(=O)O | – | SCID mouse SK-OV-3 xenograft, lung | 120 min, post injection | – | tissue uptake | 0.9 ± 0.1 %ID/g |
| O=c1[nH]c(Cc2ccccn2)nc2c1cnn2C1CCOCC1 | – | healthy men, extensive metabolizers, plasma | oral, 50 mg single dose, tablet, geometric mean | – | AUC(0-inf) | 0.539 µM·h |
| COc1ccc(C(=O)NCc2cc(C(C)C)no2)cc1OC1CCN(C)CC1 | – | male Sprague-Dawley rat, plasma | intravenous, 1 mg/kg, 15 min | – | concentration | 129 ng/mL |
| CCCCCOc1ccc(-c2cc(-c3ccc(C(=O)N[C@H]4C[C@@H](O)[C@@H](O)NC(=O)[C@@H]5[C@@H](O)[C@@H](C)CN5C(=O)[C@H]([C@H](O)CC(N)=O)NC(=O)[C@H]([C@H](O)[C@@H](O)c5ccc(O)c(OS(=O)(=O)O)c5)NC(=O)[C@@H]5C[C@@H](O)CN5C(=O)[C@H]([C@@H](C)O)NC4=O)cc3)no2)cc1 | – | preterm neonates ≥1000 g, plasma | intravenous, 15 mg/kg/day, repeated dosing, mean | – | Vdss | 1.8 L |
| C[C@H]1C(=O)O[C@@H]2CCN3CC=C(COC(=O)[C@](C)(O)[C@]1(C)O)[C@H]23 | – | human, whole blood | 1000 ng/mL, 60 min, 37 °C | – | blood-to-plasma ratio | 1.07 |
| CC[C@H](C)[C@H](NC(=O)[C@@H](N)CCCNC(=N)N)C(=O)N[C@H](C(=O)N1CCC[C@H]1C(=O)N[C@@H](C)C(N)=O)C(C)C | – | human, plasma | intravenous, 2 mg/kg, single dose, healthy volunteers | – | AUC(0-t) | 491 ng·h/mL |
| COc1cc(Nc2ncc(F)c(Nc3ccc4c(n3)NC(=O)C(C)(C)O4)n2)cc(OC)c1OC | – | buffer without surfactant or BSA | – | – | solubility | < 1 µM |
| [123I]c1cncc(OC[C@@H]2CCN2)c1 | SPECT | human, cerebellum | intravenous bolus, 7.35 mCi | baseline: tissue over plasma | tissue/plasma ratio | 31.1 |
| [18F]CCOc1ccccc1OC(c1ccccc1)C1CNCCO1 (centres unmarked) | – | 1-octanol/phosphate buffer | pH 7.4 | – | log P | 2 to 2.47 |
| H-EALRHNASRTPSATELAHANN-OH | far-UV circular dichroism | peptide, sodium phosphate buffer 50 mM | – | – | helical content | 0% |
| CNC(=O)Oc1cc(C)c(SC)c(C)c1 | – | human liver mitochondrial preparation | 1 µM, 30 min, 0.5 mg/mL protein | – | percent metabolized | 1.83% |

Excerpt of the above:
| Substance | assay | test system | conditions | how to read | quantity | result |
| --- | --- | --- | --- | --- | --- | --- |
| O=c1[nH]c(Cc2ccccn2)nc2c1cnn2C1CCOCC1 | – | healthy men, extensive metabolizers, plasma | oral, 50 mg single dose, tablet, geometric mean | – | AUC(0-inf) | 0.539 µM·h |
| COc1ccc(C(=O)NCc2cc(C(C)C)no2)cc1OC1CCN(C)CC1 | – | male Sprague-Dawley rat, plasma | intravenous, 1 mg/kg, 15 min | – | concentration | 129 ng/mL |
